Measured values of several laboratories.
Protocols differ between the studies behind these lines. ± gives the spread as reported.
Technique: steady-state kinetics
B1: putA D779Y (Bradyrhizobium diazoefficiens, UniProt Q89E26); chain MPNIPPPFTAPYAPDDAEIAARLLPASHLSPPQEARIHRTATRLIEAIRKRDDRLGGVEDMLREFALSTKEGLALMVLAEALLRVPDARTADQFIEDKLGEGDFIHHETKSTAFLVNASAWALGLSARVIQPGETPDGTIGRLVKRLGAPAVRTATRQAMRLMGNHFVLGETIEQALERGKPRSGQKTRYSFDMLGEGARTAADARRYFDAYASAIETIGKAAGNHALPDRPGISVKLSALHPRFEAISRARVMVELVPQLLDLAQRAKAHDLNFTVDAEEADRLELSLDVIAATLADPSLKGWDGFGLAIQAYQKRASAVIDYVDALARAHDRKLMVRLVKGAYWDTEIKRAQERGLDGYPVFTRKAMTDLNYVACASKLLALRPRIFPQFATHNALTVATVLEMAEGSSGFEFQRLHGMGEALYEQLAKDHADIAYRTYAPVGSHRDLLAYLVRRLLENGANSSFVAQAADYRVPVPALLQRPADAIVRPQAAAHPRIPLPCDLFAPERRNSRGVEFGARTALDQLLTDVKAETGDLKPIADATPDQAHAAVAAARAGFAGWSRTPAGIRAAALEQAAHLLESRSAHFIALLQREGGKTLDDALSELREAADFCRYYAAQGRKLFGSETAMPGPTGESNALTMRGRGVFVAISPWNFPLAIFLGQVTAALMAGNSVVAKPAEQTPRIAREAVALLHEAGIPKSALYLVTGDGRIGAALTAHPDIAGVVFTGSTEVARSINRALAAKDGPIVPLIAETGGINAMIADATALPEQVADYVVTSAFRSAGQRCSALRLLFVQEDVADRMIEMVAGAARELKIGDPSDVATHVGPVIDVEAKQRLDAHIARMKTEARLHFAGPAPEGCFVAPHIFELTEAGQLTEEVFGPILHVVRYRPENLERVLRAIERTGYGLTLGVHSRIDDSIEAIIDRVQVGNIYVNRNMIGAVVGVQPFGGNGLSGTGPKAGGPHYLARFATEQTVTINTAAAGGNAALLAGEE
B2: Saccharopine reductase (Saccharomyces cerevisiae, UniProt P38999); chain MGKNVLLLGSGFVAQPVIDTLAANDDINVTVACRTLANAQALAKPSGSKAISLDVTDDSALDKVLADNDVVISLIPYTFHPNVVKSAIRTKTDVVTSSYISPALRELEPEIVKAGITVMNEIGLDPGIDHLYAVKTIDEVHRAGGKLKSFLSYCGGLPAPEDSDNPLGYKFSWSSRGVLLALRNSAKYWKDGKIETVSSEDLMATAKPYFIYPGYAFVCYPNRDSTLFKDLYHIPEAETVIRGTLRYQGFPEFVKALVDMGMLKDDANEIFSKPIAWNEALKQYLGAKSTSKEDLIASIDSKATWKDDEDRERILSGFAWLGLFSDAKITPRGNALDTLCARLEELMQYEDNERDMVVLQHKFGIEWADGTTETRTSTLVDYGKVGGYSSMAATVGYPVAIATKFVLDGTIKGPGLLAPYSPEINDPIMKELKDKYGIYLKEKTVA
B3: protein (Allochromatium vinosum, UniProt P45370); chain MFPIDIRPDKLTQEMLDYSRKLGQGMENLLNAEAIDTGVSPKQAVYSEDKLVLYRYDRPEGAPEAQPVPLLIVYALVNRPYMTDIQEDRSTIKGLLATGQDVYLIDWGYPDQADRALTLDDYINGYIDRCVDYLREAHGVDKVNLLGICQGGAFSLMYSALHPDKVRNLVTMVTPVDFKTPDNLLSAWVQNVDIDLAVDTMGNIPGELLNWTFLSLKPFSLTGQKYVNMVDLLDDPDKVKNFLRMEKWIFDSPDQAGETFRQFIKDFYQNNGFLNGGVVLGGQEVDLKDITCPVLNIFALQDHLVPPDASRALKGLTSSPDYTELAFPGGHIGIYVSGKAQKEVTPAIGKWLNER
B4: enzyme A178R/D177A/M179S/P184R (Levilactobacillus brevis, UniProt Q03Q85); chain MKVTVVGCTHAGTFAIKQILAEHPDAEVTVYERNDVISFLSCGIALYLGGKVADPQGLFYSSPEELQKLGANVQMNHNVLAIDPDQKTVTVEDLTNHAQTTESYDKLVMTSGSWPIVPKIPGIDSDRVKLCKNWAHAQALIEDAKEAKRITVIGAGYIGAELAEAYSTTGHDVTLIARSARVMRKYFDADFTDVIEQDYRDHGVQLALGETVESFTDSATGLTIKTDKNSYETDLAILCIGFRPNTDLLKGKVDMAPNGAIITDDYMRSSNPDIFAAGDSAAVHYNPTHQNAYIPLATNAVRQGILVGKNLVKPTVKYMGTQSSSGLALYDRTIVSTGLTLAAAKQQGLNAEQVIVEDNYRPEFMPSTEPVLMSLVFDPDTHRILGGALMSKYDVSQSANTLSVCIQNENTIDDLAMVDMLFQPNFDRPFNYLNILAQAAQAKVAQSVNA
B5: BPHL (Homo sapiens, UniProt Q86WA6); chain SVTSAKVAVNGVQLHYQQTGEGDHAVLLLPGMLGSGETDFGPQLKNLNKKLFTVVAWDPRGYGHSRPPDRDFPADFFERDAKDAVDLMKALKFKKVSLLGWSDGGITALIAAAKYPSYIHKMVIWGANAYVTDEDSMIYEGIRDVSKWSERTRKPLEALYGYDYFARTCEKWVDGIRQFKHLPDGNICRHLLPRVQCPALIVHGEKDPLVPRFHADFIHKHVKGSRLHLMPEGKHNLHLRFADEFNKLAEDFLQ
B6: SULT1A1 I89A (Homo sapiens, UniProt P50225); chain MELIQDTSRPPLEYVKGVPLIKYFAEALGPLQSFQARPDDLLISTYPKSGTTWVSQILDMIYQGGDLEKCHRAPIFMRVPFLEFKAPGAPSGMETLKDTPAPRLLKTHLPLALLPQTLLDQKVKVVYVARNAKDVAVSYYHFYHMAKVHPEPGTWDSFLEKFMVGEVSYGSWYQHVQEWWELSRTHPVLYLFYEDMKENPKREIQKILEFVGRSLPEETVDFVVQHTSFKEMKKNPMTNYTTVPQEFMDHSISPFMRKGMAGDWKTTFTVAQNERFDADYAEKMAGCSLSFRSEL
B7: MCAT R178A (Homo sapiens, UniProt Q8IVS2); chain GQGSQVVGMGRGLLNYPRVRELYAAARRVLGYDLLELSLHGPQETLDRTVHCQPAIFVASLAAVEKLHHLQPSVIENCVAAAGFSVGEFAALVFAGAMEFAEGLYAVKIAAEAMQEASEAVPSGMLSVLGQPQSKFNFACLEAREHCKSLGIENPVCEVSNYLFPDCRVISGHQEALRFLQKNSSKFHFRRTRMLPVSGAFHTRLMEPAVEPLTQALKAVDIKKPLVSVYSNVHAHRYRHPGHIHKLLAQQLVSPVKWEQTMHAIYERKKGRGFPQTFEVGPGRQLGAILKSCNMQAWKSYSAVDVL
B8: protein (Cecembia lonarensis, UniProt K1KV82); chain QENKEKDRTPSSKHLTDNILQPKRSSDFMAFKYEYSTVDLYREFSESIMDKARSEVEILESVNRQGRYKPNVESLKLHEVPEWFEDAKLGIFLDWGPWSVPGYAPLKGAEASTGGSYPDWYEFLMDNLYKEYHDEVWGADFRRDDFLPLLTGENFNSEEYMLLAVNSGAKYFVPFTKHHAGWTMWESEFTKRNAVEMGPGRDIYKELIEAGKKYDMKMGFYFSVSEWEYPVIVDQNLSQWDPVKNLAIFQDALGQIPRATPLASYFPALHDRMISGKIPVKDYFADYMIPSFKEAVDKYDPDLVWYDGGWGSPVSISRTMETSAYFYNQAEGKKDVVINNRAGSSLSEDDLIKVRDLMDSGKRDEAMKIYLSGQQLGDYGTPEFTIGDVDIQSKWEVCRSISPAFGYNWQDDEASSLSGEELIKLFVDIVANNGNLLLVISPDGSGKLPDIQKDRLLELGDWMKVNAESIHNTRPWKVQKENDKFFTKSKDGKSLFVHCTNWPGENLIINTPIEEGIKGIKLLGSDINLQFTKASNGNLEIPIPKDFQNNPSLISKYVWTFKIDLN
B9: carbamoyl phosphate synthetase large subunit A23K (Escherichia coli, UniProt P00968); chain PKRTDIKSILILGAGPIVIGQKCEFDYSGAQACKALREEGYRVILVNSNPATIMTDPEMADATYIEPIHWEVVRKIIEKERPDAVLPTMGGQTALNCALELERQGVLEEFGVTMIGATADAIDKAEDRRRFDVAMKKIGLETARSGIAHTMEEALAVAADVGFPCIIRPSFTMGGSGGGIAYNREEFEEICARGLDLSPTKELLIDESLIGWKEYEMEVVRDKNDNCIIVCSIENFDAMGIHTGDSITVAPAQTLTDKEYQIMRNASMAVLREIGVETGGSNVQFAVNPKNGRLIVIEMNPRVSRSSALASKATGFPIAKVAAKLAVGYTLDELMNDITGGRTPASFEPSIDYVVTKIPRFNFEKFAGANDRLTTQMKSVGEVMAIGRTQQESLQKALRGLEVGATGFDPKVSLDDPEALTKIRRELKDAGADRIWYIADAFRAGLSVDGVFNLTNIDRWFLVQIEELVRLEEKVAEVGITGLNADFLRQLKRKGFADARLAKLAGVREAEIRKLRDQYDLHPVYKRVDTCAAEFATDTAYMYSTYEEECEANPSTDREKIMVLGGGPNRIGQGIEFDYCCVHASLALREDGYETIMVNCNPETVSTDYDTSDRLYFEPVTLEDVLEIVRIEKPKGVIVQYGGQTPLKLARALEAAGVPVIGTSPDAIDRAEDRERFQHAVERLKLKQPANATVTAIEMAVEKAKEIGYPLVVRPSYVLGGRAMEIVYDEADLRRYFQTAVSVSNDAPVLLDHFLDDAVEVDVDAICDGEMVLIGGIMEHIEQAGVHSGDSACSLPAYTLSQEIQDVMRQQVQKLAFELQVRGLMNVQFAVKNNEVYLIEVNPRAARTVPFVSKATGVPLAKVAARVMAGKSLAEQGVTKEVIPPYYSVKEVVLPFNKFPGVDPLLGPEMRSTGEVMGVGRTFAEAFAKAQLGSNSTMKKHGRALLSVREGDKERVVDLAAKLLKQGFELDATHGTAIVLGEAGINPRLVNKVHEGRPHIQDRIKNGEYTYIINTTSGRRAIEDSRVIRRSALQYKVHYDTTLNGGFATAMALNADATEKVISVQEMHAQIK
Chain of UniProt P12081 (whole entry, looked up): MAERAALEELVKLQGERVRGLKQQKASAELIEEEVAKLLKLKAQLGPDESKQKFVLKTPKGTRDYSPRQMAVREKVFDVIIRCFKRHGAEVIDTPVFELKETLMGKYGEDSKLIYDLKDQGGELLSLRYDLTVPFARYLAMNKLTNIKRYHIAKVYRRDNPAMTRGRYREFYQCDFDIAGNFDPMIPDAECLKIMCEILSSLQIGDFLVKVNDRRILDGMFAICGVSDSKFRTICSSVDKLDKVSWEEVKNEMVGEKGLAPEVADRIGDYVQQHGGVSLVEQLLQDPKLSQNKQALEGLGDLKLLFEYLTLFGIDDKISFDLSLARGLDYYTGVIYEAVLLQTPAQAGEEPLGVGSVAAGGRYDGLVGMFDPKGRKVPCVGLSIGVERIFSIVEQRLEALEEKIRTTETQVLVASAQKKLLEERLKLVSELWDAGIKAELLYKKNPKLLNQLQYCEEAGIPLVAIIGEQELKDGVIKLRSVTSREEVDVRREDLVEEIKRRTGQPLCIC
Chain of UniProt P04079 (whole entry, looked up): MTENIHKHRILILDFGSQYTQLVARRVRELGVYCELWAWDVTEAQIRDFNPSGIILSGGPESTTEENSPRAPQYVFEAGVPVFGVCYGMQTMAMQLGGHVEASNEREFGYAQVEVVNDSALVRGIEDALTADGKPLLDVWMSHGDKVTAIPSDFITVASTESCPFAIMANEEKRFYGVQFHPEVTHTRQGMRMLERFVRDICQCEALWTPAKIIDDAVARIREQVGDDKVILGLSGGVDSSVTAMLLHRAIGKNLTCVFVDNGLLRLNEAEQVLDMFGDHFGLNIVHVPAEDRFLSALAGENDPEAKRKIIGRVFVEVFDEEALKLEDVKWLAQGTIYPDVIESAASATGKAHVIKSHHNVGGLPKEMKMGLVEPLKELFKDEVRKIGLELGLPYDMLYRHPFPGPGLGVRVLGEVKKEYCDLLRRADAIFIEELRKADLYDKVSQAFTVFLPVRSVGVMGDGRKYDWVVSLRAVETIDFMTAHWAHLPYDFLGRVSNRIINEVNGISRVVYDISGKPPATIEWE
Chain of UniProt Q6ZQB6 (whole entry, looked up): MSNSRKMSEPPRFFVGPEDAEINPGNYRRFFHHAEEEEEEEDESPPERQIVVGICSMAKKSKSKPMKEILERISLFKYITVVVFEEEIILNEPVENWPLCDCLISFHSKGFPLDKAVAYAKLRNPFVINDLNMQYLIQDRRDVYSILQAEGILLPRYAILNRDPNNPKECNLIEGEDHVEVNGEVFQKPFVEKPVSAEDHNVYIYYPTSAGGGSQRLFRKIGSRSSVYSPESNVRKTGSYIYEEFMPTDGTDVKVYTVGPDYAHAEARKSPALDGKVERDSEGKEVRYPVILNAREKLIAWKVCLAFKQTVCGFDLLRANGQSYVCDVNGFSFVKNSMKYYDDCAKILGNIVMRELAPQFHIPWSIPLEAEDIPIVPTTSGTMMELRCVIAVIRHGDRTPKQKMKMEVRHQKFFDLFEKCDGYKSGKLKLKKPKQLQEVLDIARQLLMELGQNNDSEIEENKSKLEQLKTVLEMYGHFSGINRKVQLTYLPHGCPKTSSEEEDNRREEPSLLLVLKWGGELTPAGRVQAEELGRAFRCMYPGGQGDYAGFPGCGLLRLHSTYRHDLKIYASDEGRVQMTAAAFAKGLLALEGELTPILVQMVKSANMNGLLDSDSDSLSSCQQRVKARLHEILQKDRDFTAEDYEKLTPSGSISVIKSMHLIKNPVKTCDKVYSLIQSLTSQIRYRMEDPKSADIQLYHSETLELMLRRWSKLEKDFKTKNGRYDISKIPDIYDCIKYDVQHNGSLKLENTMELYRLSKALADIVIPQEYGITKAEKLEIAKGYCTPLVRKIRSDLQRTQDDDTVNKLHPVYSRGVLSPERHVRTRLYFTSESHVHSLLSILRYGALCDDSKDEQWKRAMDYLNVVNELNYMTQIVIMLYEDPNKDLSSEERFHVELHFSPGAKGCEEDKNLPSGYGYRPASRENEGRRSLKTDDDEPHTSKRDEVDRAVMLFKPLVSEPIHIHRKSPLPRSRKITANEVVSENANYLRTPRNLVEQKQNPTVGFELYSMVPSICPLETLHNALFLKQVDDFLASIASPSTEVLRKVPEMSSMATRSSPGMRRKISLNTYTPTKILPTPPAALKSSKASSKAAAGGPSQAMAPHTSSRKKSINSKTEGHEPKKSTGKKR

| Substance | substrate | pH | temperature | setting | together with | kcat [s⁻¹] |
| --- | --- | --- | --- | --- | --- | --- |
| B1 (putA D779Y) | O=C(O)[C@@H]1CCC=N1 | pH 7.5 | 23 °C | – | – | 0.02 ± 0.01 |
| LovD A190T/A86V/C40A/C60N/D12G/G275S/H161Y/K26E (Aspergillus terreus) | CCC(C)(C)C(=O)SCCC(=O)OC | – | 25 °C | 10% DMSO | 2 mM MJA | 0.0435 ± 0.0005 |
| B2 (Saccharopine reductase) | N[C@@H](CCC(=O)O)C(=O)O | pH 7 | 25 °C | – | NADPH, AASA | 1.9 ± 0.1 |
| GMPS (Escherichia coli, UniProt P04079) | O=c1[nH]c(=O)c2ncn([C@@H]3O[C@H](COP(=O)(O)O)[C@@H](O)[C@H]3O)c2[nH]1 | – | – | apparent | – | 0.048 ± 0.003 |
| B3 (protein) | C=CC[C@@H](O)CC(=O)SCCNC(=O)CCNC(=O)[C@H](O)C(C)(C)COP(=O)(O)OP(=O)(O)OC[C@H]1O[C@@H](n2cnc3c(N)ncnc32)[C@H](O)[C@@H]1OP(=O)(O)O | pH 7.8 | 30 °C | – | – | 12.7 |
| PGDH2 (Oryza sativa, UniProt B7FAD2) | O=C(O)[C@H](O)COP(=O)(O)O | pH 9 | 25 °C | NaCl 0.1 M, apparent | NAD+ | 30.7 ± 0.4 |
| CYP2C9 (Homo sapiens, UniProt P11712) | Cc1ccc(Nc2c(F)cccc2Cl)c(CC(=O)O)c1 | pH 7.4 | – | Hill model, CYP2C9, metabolite, not purified | – | 0.000603 |
| Ppip5k2 (Mus musculus, UniProt Q6ZQB6) | O=P(O)(O)O[C@@H]1[C@@H](OP(=O)(O)O)[C@H](OP(=O)(O)OP(=O)(O)O)[C@@H](OP(=O)(O)O)[C@H](OP(=O)(O)OP(=O)(O)O)[C@@H]1OP(=O)(O)O | pH 5 | 37 °C | – | – | 0.095 |
| enzyme (Leishmania major, UniProt E9AE57) | O=C(O)C[C@H](O)C(=O)O | – | – | – | – | 537 ± 7 |
| B4 (enzyme A178R/D177A/M179S/P184R) | NC(=O)C1=CN([C@@H]2O[C@H](COP(=O)(O)OP(=O)(O)OC[C@H]3O[C@@H](n4cnc5c(N)ncnc54)[C@H](OP(=O)(O)O)[C@@H]3O)[C@@H](O)[C@H]2O)C=CC1 | pH 7.5 | 37 °C | per site | – | 76 ± 12 |
| HARS1 (Homo sapiens, UniProt P12081) | Nc1ncnc2c1ncn2[C@@H]1O[C@H](COP(=O)(O)OP(=O)(O)OP(=O)(O)O)[C@@H](O)[C@H]1O | pH 7.5 | – | – | histidine, tRNAHis 5 µM, MgCl2 10 mM, KCl 150 mM | 5.8 ± 0.2 |
| B5 (BPHL) | CC(C)[C@H](N)C(=O)NCc1cccc(NC=NN)c1 | pH 7.4 | 37 °C | – | – | 0.00229 ± 4e-05 |
| B6 (SULT1A1 I89A) | Oc1ccc2ccccc2c1 | pH 7.2 | 25 °C | – | PAPS 0.020–0.50 µM | 5.8 |
| B7 (MCAT R178A) | CC(C)(COP(=O)(O)OP(=O)(O)OC[C@H]1O[C@@H](n2cnc3c(N)ncnc32)[C@H](O)[C@@H]1OP(=O)(O)O)[C@@H](O)C(=O)NCCC(=O)NCCSC(=O)CC(=O)O | pH 6.8 | 20 °C | labelled substrate | holo-ACP 20 µM | 0.00617 ± 0.000333 |
| alanine aminopeptidase (Neisseria meningitidis, UniProt Q9JYV4) | NC(=O)Cc1cc(=O)oc2cc(NC(=O)[C@@H](N)CCCCOCc3ccccc3)ccc12 | pH 7.5 | 37 °C | – | – | 3.24 ± 0.03 |
| B8 (protein) | O=[N+]([O-])c1ccc(O[C@@H]2OC[C@H](O)[C@@H](O)[C@@H]2O)cc1 | pH 5.5 | 35 °C | substrate inhibition | – | 3.98 ± 0.92 |
| B9 | Nc1ncnc2c1ncn2[C@@H]1O[C@H](COP(=O)(O)OP(=O)(O)OP(=O)(O)O)[C@@H](O)[C@H]1O | pH 7.6 | – | KCl 100 mM | glutamine 10 mM, ornithine 10 mM | 0.28 ± 0.01 |

Repeated from above:
| Substance | substrate | pH | temperature | setting | together with | kcat [s⁻¹] |
| --- | --- | --- | --- | --- | --- | --- |
| enzyme (Leishmania major, UniProt E9AE57) | O=C(O)C[C@H](O)C(=O)O | – | – | – | – | 537 ± 7 |
